# Experimental data of several laboratories.
# Parts stem from different laboratories: compare values within a part only. Positions count from the first letter of the parent shown.

# Series 1 — method: RNA Bind-n-Seq; molecule type: RNA; medium: in vitro; concentration: 365 nM; baseline: no-protein control; reading: higher = stronger binding
# Target: RNA binding protein fox-1 homolog 2, RRM domain, GST-SBP tag (RBFOX2, Homo sapiens, UniProt O43251-10, residues 100-194)
# Setting: natural RNA segment, single round, ends assumed
# Constant ends, left off below: GGGAGUUCUACAGUCCGACGAUC … UGGAAUUCUCGGGUGCCAA
# Construct (chain): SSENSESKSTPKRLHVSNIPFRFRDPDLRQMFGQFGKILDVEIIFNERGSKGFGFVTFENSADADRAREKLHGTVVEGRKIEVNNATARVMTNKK
Sequence,RBNS enrichment (R)
GAAUUAGGAGAUGUUUUGGUAAUUAUUUCAUAUAUUGUUGUUUAUUGAGAAAAGGUUGUAGGAUGUGUCACAAGAGACUUUUGACAAUUCUGAGGAACCUUGUGUCCAGU,0.463
ACACUCCCGUGAGUCCUGUGGUCAGGGUUUCAGGAUAGGAGGUGGAGGUUUGGGUUAACGUGGGAAAAUGUUCUUGCUUUGACACAAGGAAGUACUGAGUGGCUGCACCG,0.463
UAUUCAGAGUCUGGGGCUGUGUGUUGAGCAGCCUUAAGGAUGCUAGACACUCAUUUAGUGCCCAGGGAGUCCAGCGAAUGACGUCUGUGGCCAAGCGAGGUCUCAGGUGC,0.413
UCUCUGGCUUCAGAGCCUGAAACAAAGAGAAACAGGAUCUGUCUCUACCCAGCACAGCAAAUGGUUGUAGUAAUUGCCAAAGCCCUCAUAAACCCCUCCGGCUUGAGGAG,0.559
AGAAUUGCUUCUCAGAUGAUGAUAUCAAAUGUAUAUGCUUUUGCAAGUUUGAAAAGUUCAAAUUAACCACUUUUGACUAGGUAAGUCUUUCUAAAAACCAUUUAAAGCUA,0.538
CAACUUGUUGGCCUUGUGCUCUGUCACUCUGAGCAUCUAUGGUGAUAAAGAGAAGGAAACGCUGCAGAGGCACAAGCAUAAGCUGGCUUUGAGUCUUUGAAAGCUUGAUG,0.667
GGUGAGAACCAUCGCUCCUUUGCCAGGUAACUCUUGGGAGCCUCUCCCCCUUCUGCAUAGAGGAAAUCCCAGUGUGUGACAGCCCUUAAGGUUCCUGUGGACUUUGUGUA,0.416
GGAUUCUCGCCUAGCUGAACCAAGAUGUAAAAUAGGAGAAAUGCUCCCUCCAUAGCCAAUCUGCAUCUCGCUCUGGAUGCCCACUCCUGACCUGCCACGCCCUACAUGGU,1.24
UGAGUUGUUGUUUUUUUUUAAAUGGGGGUAGUUUUCUAUCUGUCAUGGGCUCUAGCAUCUACUCCGCUACCCAAUUCUGUCAUCUCCAAGCUGAGUUUCCUCUUCUGAGG,0.353
GCCAGCACUUUAUACCAACUCAGCAUUUAAGGGAAGUAUCUUAGAUUGCCUCCAUCUCAAUGUGAAUGCACCAGGCUGAGGGUUCCCUAGCGCCUUGAGUCAAGGCCACU,0.457
GCAAAUGUUGGAUUAUAUAUCAAAGGAAAAGCUUAGUUUCAGAGAGGAGGAAGGGAAAGAGAUGUGAGGGAAGCAUUUCAUCAACCAGCUACGUCCCCCUUAGAAGGAUC,1.66
UUGCAAGCUAAUCUAUUUGGCAAAAAAAUAGUCCCAGUUGUUCAACUAGCUCCCUUAAAACAUUCUAGUAGGUGUUUUAAAGCCUAGGUAUCGCUGCCUCUUUAGUUCUU,0.356

# Series 2 — method: protein binding microarray; molecule type: double-stranded DNA, one strand shown; medium: in vitro; concentration: not given; baseline: not given; reading: higher = stronger binding
# Target: Histone acetyltransferase KAT6A, both winged helices, GST fusion (KAT6A, Homo sapiens, UniProt Q92794, residues 1-181)
# Setting: 8-mer, flanks averaged, mean of 2 arrays, mostly near background
# Construct (chain): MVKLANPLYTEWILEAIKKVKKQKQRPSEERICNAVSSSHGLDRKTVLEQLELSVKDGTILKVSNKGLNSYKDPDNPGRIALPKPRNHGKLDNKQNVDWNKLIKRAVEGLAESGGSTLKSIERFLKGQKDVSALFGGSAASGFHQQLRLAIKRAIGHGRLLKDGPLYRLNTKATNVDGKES
Sequence,E-score
ATCCTCTC,-0.243
ATCATTCA,0.0792
ATGGAAGA,-0.174
CTTCATTC,-0.108
GTCAATCA,-0.0695
CAGTCGCC,0.0244
ACAGCGTC,0.159
AAAAACGT,0.0288
AGAAGTCT,-0.18
GGGCTACA,-0.0475
TGGTTGAA,-0.211
CGTCACCC,0.113
CCAAAGCC,-0.123
GGGTAGAA,0.0148
ATTCGAGG,-0.191
CTCGTTTC,-0.143
CCTGGAAA,-0.144
GCTGGGAC,-0.117
CATTCCGA,0.0982
ACGAGTTC,-0.0913
ACTGTGTA,-0.0359
CCTCAGAC,-0.0544
TACATAGA,-0.137

# Series 3 — target: DDIT3, bZIP domain (human); method: DHFR protein complementation; medium: yeast; baseline: wild-type JUN-FOS pair; reading: higher = stronger binding
# Setting: single substitutions, most at no-binding floor
# Starting sequence: JUN, bZIP domain (human); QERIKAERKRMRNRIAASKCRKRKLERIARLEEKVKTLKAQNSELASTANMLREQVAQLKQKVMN; partner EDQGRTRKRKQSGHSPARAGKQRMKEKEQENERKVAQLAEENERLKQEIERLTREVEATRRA
Substitution,binding fitness [natural log]
M51V,-0.0644
Q41I,0.094
L59R,-0.547
A49S,-0.744
A46W,-0.0595
S43E,0.185
V35F,0.0257
R53M,-0.356
T48C,-0.0876
K39I,-0.00385
K34S,-0.0547

# Series 4 — method: DHFR PCA, deep sequencing; medium: yeast; with: (+)-ABA 0.11 µM; baseline: wild-type fitted maximum; reading: higher = stronger binding
# Target: ABI1, truncated, D143A, DHFR fusion (Arabidopsis thaliana)
# Setting: methotrexate growth selection, single substitutions
# Starting sequence: PYL1, truncated, DHFR fusion (Arabidopsis thaliana); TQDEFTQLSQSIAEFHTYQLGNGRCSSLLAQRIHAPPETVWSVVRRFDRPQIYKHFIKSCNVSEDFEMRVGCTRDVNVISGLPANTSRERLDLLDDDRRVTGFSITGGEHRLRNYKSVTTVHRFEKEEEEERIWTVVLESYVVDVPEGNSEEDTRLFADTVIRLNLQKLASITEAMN; partner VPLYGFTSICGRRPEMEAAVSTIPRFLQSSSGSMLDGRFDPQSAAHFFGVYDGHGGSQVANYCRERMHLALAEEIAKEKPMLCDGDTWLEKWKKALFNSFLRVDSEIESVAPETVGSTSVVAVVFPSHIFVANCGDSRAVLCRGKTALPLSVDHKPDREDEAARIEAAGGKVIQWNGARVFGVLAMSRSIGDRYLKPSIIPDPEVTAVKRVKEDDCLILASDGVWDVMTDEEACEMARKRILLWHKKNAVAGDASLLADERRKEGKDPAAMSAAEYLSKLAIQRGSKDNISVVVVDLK
Substitution,relative binding score
T173E,2.2%
T106H,-0.231%
L164F,11.2%
Q51D,31.9%
R88Y,14%
Q167V,9%
D97M,10.9%
D96H,0.52%
R98F,-7.65%

# Series 5 — target: UBE2S UBC core domain (UniProt Q16763); method: yeast two-hybrid; medium: yeast; setting: mostly zero background; baseline: not given; reading: higher = stronger interaction
# B1: ZMIZ2 RING domain (UniProt Q8NF64); chain GTIPGTPGPNGEDGVEQTAIKVSLKCPITFRRIQLPARGHDCRHIQCFDLESYLQLNCERGTWRCPVCNKTALLEGLEVDQYMLGILIYIQNSDYEEITIDPTCSWK
# B2: TRIM62 RING domain (UniProt Q9BVG3); chain MACSLKDELLCSICLSIYQDPVSLGCEHYFCRRCITEHWVRQEAQGARDCPECRRTFAEPALAP
# B3: DZIP3 RING domain (UniProt Q86Y13); chain PDEEEEEEEPCVICHENLSPENLSVLPCAHKFHAQCIRPWLMQQGTCPTCRLHVLLPEEFP
# B4: SYTL4 RING domain (UniProt Q96C24); chain RGSQHYSDRTCARCQESLGRLSPKTNTCRGCNHLVCRDCRIQESNGTWRCKVCAKEIELKKAT
# B5: SH3RF1 RING domain (UniProt Q7Z6J0); chain DESALLDLLECPVCLERLDASAKVLPCQHTFCKRCLLGIVGSRNELRCPECRTLVGSGVEEL
# B6: RNF121 RING domain (UniProt Q9H920); chain MPTKHLSDSVCAVCGQQIFVDVSEEGIIENTYRLSCNHVFHEFCIRGWCIVGKKQTCPYCKEKVDLKRMFS
# B7: RBCK1 RING domain (UniProt Q9BYM8); chain SLVLNTEPAECPVCYSVLAPGEAVVLRECLHTFCRECLQGTIRNSQEAEVSCPFIDNTYSCSGKLLEREIK
# B8: MDM4 RING domain (UniProt O15151); chain MEDCQNLLKPCSLCEKRPRDGNIIHGRTGHLVTCFHCARRLKKAGASCPICKKEIQLVIKVF
# B9: RFWD3 RING domain (UniProt Q6PCD5); chain ASMDEEEGDTCTICLEQWTNAGDHRLSALRCGHLFGYRCISTWLKGQVRKCPQCNKKARHSDIVV
# B10: RNF133 RING domain (UniProt Q8WVZ7); chain DEEINPNGDSCVICFERYKPNDIVRILTCKHFFHKNCIDPWILPHGTCPICKCDILKVLGIQ
# Residues (chain): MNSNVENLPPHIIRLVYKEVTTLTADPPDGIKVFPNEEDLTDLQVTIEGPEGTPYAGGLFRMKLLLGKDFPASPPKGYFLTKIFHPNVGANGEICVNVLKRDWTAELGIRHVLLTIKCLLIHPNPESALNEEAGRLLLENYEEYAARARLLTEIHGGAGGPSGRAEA
Molecule,lacZ reporter activity
FDGDVDPDLKCALCHKVLEDPLTTPCGHVFCAGCVLPWVVQEGSCPARCRGRLSAKELN (PDZRN3 RING domain (UniProt Q9UPQ7)),0
B1 (ZMIZ2 RING domain),0
B2 (TRIM62 RING domain),0
B3 (DZIP3 RING domain),0
B4 (SYTL4 RING domain),0
B5 (SH3RF1 RING domain),0
NLSELTPYILCSICKGYLIDATTITECLHTFCKSCIVRHFYYSNRCPKCNIVVHQTQPLY (PCGF6 RING domain (UniProt Q9BYE7)),0
B6 (RNF121 RING domain),0
B7 (RBCK1 RING domain),0
B8 (MDM4 RING domain),0
B9 (RFWD3 RING domain),0
B10 (RNF133 RING domain),0

# Series 6 — target: CCNB1, cyclin fold, Cln2 fusion (human); method: yeast growth competition, sequencing; medium: yeast; setting: strong parent motif; baseline: not given; reading: higher = stronger binding
# Starting sequence: E2F1 docking peptide (human); PPVKRRLDLETDH
Substitution,normalised enrichment score
PPVKRGLDLETDH [R6G],0.731
PPVKRRLDLEEDH [T11E],1.86
PPVKRDLDLETDH [R6D],-0.23
PPVKMRLDLETDH [R5M],0.326
PAVKRRLDLETDH [P2A],0.146
PPVKRRLDLEQDH [T11Q],1.46
PPVKERLDLETDH [R5E],0.263
PPVKRALDLETDH [R6A],0.295
HPVKRRLDLETDH [P1H],1.4
PPVKRRLMLETDH [D8M],1.28
PPVKRRLPLETDH [D8P],0.339
PPVKRRLDLEVDH [T11V],1.17
PPVKRRLDLETDD [H13D],2.76
PWVKRRLDLETDH [P2W],0.184
TPVKRRLDLETDH [P1T],0.835
PPVKRRNDLETDH [L7N],-0.306
PPVKRRLHLETDH [D8H],-0.203
PPVKRRLDLETMH [D12M],0.99
PPVIRRLDLETDH [K4I],2.38
PPVKRRLCLETDH [D8C],0.673

# Repeated from above (series 6):
Substitution,normalised enrichment score
PPVKRRLCLETDH [D8C],0.673
PPVKRALDLETDH [R6A],0.295
PPVKERLDLETDH [R5E],0.263
PPVKRRLMLETDH [D8M],1.28
PPVKRGLDLETDH [R6G],0.731
HPVKRRLDLETDH [P1H],1.4
PAVKRRLDLETDH [P2A],0.146
TPVKRRLDLETDH [P1T],0.835
PPVKRRLDLEQDH [T11Q],1.46
PPVKRRNDLETDH [L7N],-0.306
